Measured values gathered from unrelated publications.
Numbered parts are unrelated; each lists some results of a single study.

Study 1
Target: RNA binding protein fox-1 homolog 2, RRM domain, GST-SBP tag (RBFOX2, Homo sapiens, UniProt O43251-10, residues 100-194)
Method: RNA Bind-n-Seq
Molecule type: RNA
Matrix: in vitro
Concentration: 365 nM
Setting: natural RNA segment, single round, ends assumed
Reference: no-protein control
Reading: higher = stronger binding
Sequence | RBNS enrichment (R)
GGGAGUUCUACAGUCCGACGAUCGUGAAAUCGGUUUGAUUGAGUGGGCUCUGAAAGGGGCAUUUAAUGGUCUUGUUUCUUCAUAACUCACAAUCACUGGCUACCAAGAUAACCCUGAUGUAUUGAUUCCAUAAUGGAAUUCUCGGGUGCCAA | 0.727
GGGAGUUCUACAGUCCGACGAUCCUACAAUAAACUGUGCCAAUUAAAAACCUAAGGCUAAAACUGAAAGCCCUUUGAUGGGGUCUUAACUCAUAUCAGUCAUUUGGGCUUCUCUGAUCCUGAGGCUAAGAAAGUGGAAUUCUCGGGUGCCAA | 0.397
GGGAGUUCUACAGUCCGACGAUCUCUGGAGAGGGACCAAGUCUUUUCUGCCCACAUCUCACACAAUUGAGGUGUCUGAACAAGCUUGGGGAGGGUCUAUAAGGGGUAGGCUCAAAAAAAAAAAAACCCAUUUGUGGAAUUCUCGGGUGCCAA | 0.791
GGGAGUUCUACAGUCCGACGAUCUGUUUUAGCCUUCAGGUGUUUGGUUUUGUAUGUGCUCCCUCAUUUUAAACAUUAAACCAAACUUCUGGUUUCCUUUAGACAAUCCAAGAGAAAUAAAAGGCCCUACUUUCUGGAAUUCUCGGGUGCCAA | 0.852
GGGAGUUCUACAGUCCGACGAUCUGGAGCAUUCCAUCAAAGUUGGAAUUAGGGGAAGGAGGCCCACUGUCCUCCCCGGUCUCCUGAGAGUCAGACUGCAGGCCCUCCCCUCUCCCACUGCUUCCCUUCAGGUGUGGAAUUCUCGGGUGCCAA | 0.456
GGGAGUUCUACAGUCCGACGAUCCCAGGGACCUCUUUAUCUCAAUCUAUUUAUUUGGCAUCCUGGGAGGGAUUUCCAAUAGUAAUUUAUGUGACCUGGGGCAGGAUACCGUCAGUGAGGUGCCCAGAGCUGCAUGGAAUUCUCGGGUGCCAA | 6.62

Study 2
Target: Interferon regulatory factor 5, full length, phosphomimetic (IRF5, Homo sapiens, UniProt Q13568-2, residues 1-514, S451D/S453D/S456D/S462D)
Method: protein-binding microarray
Molecule type: double-stranded DNA, one strand shown
Matrix: in vitro
Concentration: 940 nM top
Setting: 60-bp whole probe
With: salmon DNA 0.4 mg/ml
Reference: random background probes
Reading: higher = stronger binding
Shared flanks, not repeated: GCCTAGCAC … GTCTTGATTCGCTTGACGCTGCTG
Sequence | fitted relative affinity [z-score]
TTAGGTAACGGACTGGGTTAGTGCTAG | 0.106
GACGATCTCTGACTGGAGACGTGCTAG | -0.305
TTAGATATCCTACTGCTTTAGTGCTAG | 0.172
TTCTGAATGCCCTTCCATCACGTGCTA | 0.303
GACGGTTTCGGTTCCGGGATGTGCTAG | 13.4
TCCTGTGTCTTAAATAGGGCAGTGCTA | -0.129

Study 3
Target: PABPC1L2, full length, GST fusion (mouse, UniProt A0ABA7IW68)
Method: RNAcompete
Molecule type: RNA
Matrix: in vitro
Concentration: 20 nM
Setting: 7-mer, probes averaged, single round
Reference: mean of 7-mers
Reading: higher = stronger binding
Sequence | 7-mer Z-score
UAUCUCC | -0.385
AACGAGC | 0.287
GUAGGAA | 0.298
AGGAUCU | -0.161
CGUCGGG | -0.0482

Other studies, line by line
Substance | target | test | test system | setting | how to read | measurement | value
PhoQ, residues 284 288 289 292 302 303 AGCYAI | PhoP, residues 12 14 15 18 19 AQCLL (Escherichia coli, UniProt P23836) | Sort-seq, item: YFP reporter | E. coli | PhoQ-PhoP variant library, with: 10 µM Mg2+ | reference: high Mg2+ state, higher = stronger signaling | fold induction | 3.21

Excerpt of the above (study 1):
Sequence | RBNS enrichment (R)
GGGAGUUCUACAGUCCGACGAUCUGUUUUAGCCUUCAGGUGUUUGGUUUUGUAUGUGCUCCCUCAUUUUAAACAUUAAACCAAACUUCUGGUUUCCUUUAGACAAUCCAAGAGAAAUAAAAGGCCCUACUUUCUGGAAUUCUCGGGUGCCAA | 0.852
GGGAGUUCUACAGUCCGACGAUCUGGAGCAUUCCAUCAAAGUUGGAAUUAGGGGAAGGAGGCCCACUGUCCUCCCCGGUCUCCUGAGAGUCAGACUGCAGGCCCUCCCCUCUCCCACUGCUUCCCUUCAGGUGUGGAAUUCUCGGGUGCCAA | 0.456
